# Measured values gathered from unrelated publications.
# Numbered parts are unrelated; each lists some results of a single study. Substitutions count along the parent as printed.
# Sequence of UniProt P00519 (whole entry, looked up): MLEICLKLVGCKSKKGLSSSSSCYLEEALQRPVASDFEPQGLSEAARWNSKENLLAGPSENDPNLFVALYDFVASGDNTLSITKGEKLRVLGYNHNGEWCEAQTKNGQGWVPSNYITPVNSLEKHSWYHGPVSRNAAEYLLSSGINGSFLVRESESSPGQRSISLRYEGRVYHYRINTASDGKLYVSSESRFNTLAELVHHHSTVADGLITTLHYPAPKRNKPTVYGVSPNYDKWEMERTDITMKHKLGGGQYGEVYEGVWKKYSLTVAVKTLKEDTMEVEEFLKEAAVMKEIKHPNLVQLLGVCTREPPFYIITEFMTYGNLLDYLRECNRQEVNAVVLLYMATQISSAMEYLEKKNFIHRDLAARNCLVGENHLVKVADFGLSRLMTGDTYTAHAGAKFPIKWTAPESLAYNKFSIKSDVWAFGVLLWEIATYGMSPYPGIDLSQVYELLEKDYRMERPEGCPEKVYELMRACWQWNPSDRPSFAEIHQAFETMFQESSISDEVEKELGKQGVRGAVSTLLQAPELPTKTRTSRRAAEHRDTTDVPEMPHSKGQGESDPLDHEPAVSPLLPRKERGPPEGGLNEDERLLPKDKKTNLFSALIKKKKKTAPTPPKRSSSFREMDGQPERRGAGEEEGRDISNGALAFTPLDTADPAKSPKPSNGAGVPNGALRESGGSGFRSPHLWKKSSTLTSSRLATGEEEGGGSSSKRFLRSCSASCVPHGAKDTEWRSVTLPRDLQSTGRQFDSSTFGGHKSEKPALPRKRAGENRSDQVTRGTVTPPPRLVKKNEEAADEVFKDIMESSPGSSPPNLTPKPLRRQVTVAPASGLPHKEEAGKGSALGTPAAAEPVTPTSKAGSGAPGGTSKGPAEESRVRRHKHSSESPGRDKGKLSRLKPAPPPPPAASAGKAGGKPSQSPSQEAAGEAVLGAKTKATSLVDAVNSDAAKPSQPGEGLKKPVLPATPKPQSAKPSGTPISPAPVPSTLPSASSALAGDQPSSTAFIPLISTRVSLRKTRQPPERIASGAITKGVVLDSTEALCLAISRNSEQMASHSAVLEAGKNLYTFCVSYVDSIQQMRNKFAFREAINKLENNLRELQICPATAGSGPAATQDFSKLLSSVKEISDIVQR
# Sequence of UniProt O15264 (whole entry, looked up): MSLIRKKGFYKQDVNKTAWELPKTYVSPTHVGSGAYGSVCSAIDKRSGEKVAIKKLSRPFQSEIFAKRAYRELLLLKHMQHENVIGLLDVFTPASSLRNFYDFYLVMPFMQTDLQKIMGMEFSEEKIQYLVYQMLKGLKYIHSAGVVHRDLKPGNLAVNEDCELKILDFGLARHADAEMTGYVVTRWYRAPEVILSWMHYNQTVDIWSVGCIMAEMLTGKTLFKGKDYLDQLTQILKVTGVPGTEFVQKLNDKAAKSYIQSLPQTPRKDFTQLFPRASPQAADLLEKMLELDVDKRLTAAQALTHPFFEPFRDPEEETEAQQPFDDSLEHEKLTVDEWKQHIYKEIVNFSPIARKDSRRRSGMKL
# Sequence of UniProt Q9Y2K2 (whole entry, looked up): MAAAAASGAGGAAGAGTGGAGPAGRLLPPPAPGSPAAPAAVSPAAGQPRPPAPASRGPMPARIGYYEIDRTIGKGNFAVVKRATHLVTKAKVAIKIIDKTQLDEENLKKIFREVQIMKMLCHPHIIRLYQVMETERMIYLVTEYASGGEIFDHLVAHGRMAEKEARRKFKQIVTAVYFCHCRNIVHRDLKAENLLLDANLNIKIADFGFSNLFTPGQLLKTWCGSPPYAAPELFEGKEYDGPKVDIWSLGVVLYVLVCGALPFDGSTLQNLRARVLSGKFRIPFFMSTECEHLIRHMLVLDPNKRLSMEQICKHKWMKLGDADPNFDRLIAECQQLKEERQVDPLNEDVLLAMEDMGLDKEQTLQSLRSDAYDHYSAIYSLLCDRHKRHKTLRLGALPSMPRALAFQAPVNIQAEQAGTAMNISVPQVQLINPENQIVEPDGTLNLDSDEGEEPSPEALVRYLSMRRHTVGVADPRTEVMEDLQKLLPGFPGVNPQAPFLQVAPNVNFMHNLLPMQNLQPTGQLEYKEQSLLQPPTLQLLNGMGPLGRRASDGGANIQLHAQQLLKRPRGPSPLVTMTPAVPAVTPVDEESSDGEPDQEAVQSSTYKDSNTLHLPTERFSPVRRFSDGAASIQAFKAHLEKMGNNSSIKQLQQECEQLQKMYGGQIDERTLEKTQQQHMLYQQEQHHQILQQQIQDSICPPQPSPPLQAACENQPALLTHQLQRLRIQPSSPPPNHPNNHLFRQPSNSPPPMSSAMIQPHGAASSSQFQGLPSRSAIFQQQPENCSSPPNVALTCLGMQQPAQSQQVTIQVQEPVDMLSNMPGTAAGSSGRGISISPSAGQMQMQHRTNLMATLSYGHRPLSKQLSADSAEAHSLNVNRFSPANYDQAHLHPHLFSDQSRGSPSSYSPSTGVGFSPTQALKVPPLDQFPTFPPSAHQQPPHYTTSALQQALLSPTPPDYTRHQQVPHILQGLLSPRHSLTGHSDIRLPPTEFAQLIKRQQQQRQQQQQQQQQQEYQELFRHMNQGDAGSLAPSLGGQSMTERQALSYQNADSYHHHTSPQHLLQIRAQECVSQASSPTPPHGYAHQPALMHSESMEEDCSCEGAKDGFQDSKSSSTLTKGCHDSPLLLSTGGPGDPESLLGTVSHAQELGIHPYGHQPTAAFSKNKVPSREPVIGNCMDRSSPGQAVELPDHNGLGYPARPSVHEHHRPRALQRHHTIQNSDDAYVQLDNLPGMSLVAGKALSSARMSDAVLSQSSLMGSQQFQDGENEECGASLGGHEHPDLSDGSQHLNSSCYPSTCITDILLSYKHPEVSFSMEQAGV
# Sequence of UniProt P53671 (whole entry, looked up): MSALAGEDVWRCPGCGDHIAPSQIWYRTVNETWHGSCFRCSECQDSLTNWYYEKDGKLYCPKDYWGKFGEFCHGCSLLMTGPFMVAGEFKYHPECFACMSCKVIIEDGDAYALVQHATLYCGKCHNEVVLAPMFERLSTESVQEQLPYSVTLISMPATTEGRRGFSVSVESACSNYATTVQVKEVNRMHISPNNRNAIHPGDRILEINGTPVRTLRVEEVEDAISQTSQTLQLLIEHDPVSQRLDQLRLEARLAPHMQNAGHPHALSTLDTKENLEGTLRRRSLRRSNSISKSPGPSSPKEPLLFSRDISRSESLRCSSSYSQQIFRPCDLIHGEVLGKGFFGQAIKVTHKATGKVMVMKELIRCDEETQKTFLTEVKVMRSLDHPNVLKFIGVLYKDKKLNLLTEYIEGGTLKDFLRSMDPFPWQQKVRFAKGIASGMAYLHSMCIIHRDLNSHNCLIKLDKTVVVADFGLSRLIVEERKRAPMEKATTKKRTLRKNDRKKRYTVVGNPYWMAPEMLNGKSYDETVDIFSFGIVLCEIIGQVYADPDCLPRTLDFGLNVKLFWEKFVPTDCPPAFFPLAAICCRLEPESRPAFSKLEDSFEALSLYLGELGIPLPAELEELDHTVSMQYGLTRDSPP
# Sequence of UniProt Q8NE63 (whole entry, looked up): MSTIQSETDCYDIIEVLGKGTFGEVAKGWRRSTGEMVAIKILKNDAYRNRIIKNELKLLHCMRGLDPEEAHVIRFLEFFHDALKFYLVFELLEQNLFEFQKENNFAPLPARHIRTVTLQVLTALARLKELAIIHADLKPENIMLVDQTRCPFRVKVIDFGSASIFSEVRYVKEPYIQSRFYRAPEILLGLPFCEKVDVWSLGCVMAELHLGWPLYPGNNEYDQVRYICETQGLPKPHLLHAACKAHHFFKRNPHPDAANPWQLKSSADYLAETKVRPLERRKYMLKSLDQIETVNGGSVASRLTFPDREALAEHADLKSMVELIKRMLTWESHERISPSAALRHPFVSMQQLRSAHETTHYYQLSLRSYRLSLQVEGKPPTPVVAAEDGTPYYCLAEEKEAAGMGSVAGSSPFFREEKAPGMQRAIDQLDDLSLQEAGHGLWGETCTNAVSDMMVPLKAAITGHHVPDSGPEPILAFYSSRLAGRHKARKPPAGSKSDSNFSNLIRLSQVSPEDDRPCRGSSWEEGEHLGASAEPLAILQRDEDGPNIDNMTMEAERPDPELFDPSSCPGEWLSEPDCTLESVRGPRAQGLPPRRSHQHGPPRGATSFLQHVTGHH

# Sample 1
# Target: Prothrombin, mature alpha-thrombin (F2, Homo sapiens, UniProt P00734)
# Method: aptamer microarray, sandwich
# Molecule type: DNA with 2'F-ANA
# Sample: in vitro
# Tested at: 200 nM
# Notes: whole 15-mer aptamer, many near background
# Together with: Cy3 exosite-II aptamer, 400 nM
# Reading: higher = stronger binding
# Oligonucleotide: GGTTGGTGTGGTTGG
Modification,mean fluorescence intensity [a.u.]
2'F-ANA at 1 5 6 7 9 12 14,44
2'F-ANA at 1 2 4 12 14 15,59.4
2'F-ANA at 1 3 5 7 9 13 15,53.4
2'F-ANA at 1 2 3 6 8 9 11 13 14,65.4
2'F-ANA at 1 4 6 7 11 14,50
2'F-ANA at 1 3 6 7 8 10 11 13 14,65
2'F-ANA at 1 3 4 5 6 7 13 14 15,68.2
2'F-ANA at 1 3 5 6 8 9 11 12 13 15,80.2

# Sample 2
# Target: Discoidin domain-containing receptor 2 (DDR2, Homo sapiens, UniProt Q16832)
# Sequence of UniProt Q16832 (whole entry, looked up): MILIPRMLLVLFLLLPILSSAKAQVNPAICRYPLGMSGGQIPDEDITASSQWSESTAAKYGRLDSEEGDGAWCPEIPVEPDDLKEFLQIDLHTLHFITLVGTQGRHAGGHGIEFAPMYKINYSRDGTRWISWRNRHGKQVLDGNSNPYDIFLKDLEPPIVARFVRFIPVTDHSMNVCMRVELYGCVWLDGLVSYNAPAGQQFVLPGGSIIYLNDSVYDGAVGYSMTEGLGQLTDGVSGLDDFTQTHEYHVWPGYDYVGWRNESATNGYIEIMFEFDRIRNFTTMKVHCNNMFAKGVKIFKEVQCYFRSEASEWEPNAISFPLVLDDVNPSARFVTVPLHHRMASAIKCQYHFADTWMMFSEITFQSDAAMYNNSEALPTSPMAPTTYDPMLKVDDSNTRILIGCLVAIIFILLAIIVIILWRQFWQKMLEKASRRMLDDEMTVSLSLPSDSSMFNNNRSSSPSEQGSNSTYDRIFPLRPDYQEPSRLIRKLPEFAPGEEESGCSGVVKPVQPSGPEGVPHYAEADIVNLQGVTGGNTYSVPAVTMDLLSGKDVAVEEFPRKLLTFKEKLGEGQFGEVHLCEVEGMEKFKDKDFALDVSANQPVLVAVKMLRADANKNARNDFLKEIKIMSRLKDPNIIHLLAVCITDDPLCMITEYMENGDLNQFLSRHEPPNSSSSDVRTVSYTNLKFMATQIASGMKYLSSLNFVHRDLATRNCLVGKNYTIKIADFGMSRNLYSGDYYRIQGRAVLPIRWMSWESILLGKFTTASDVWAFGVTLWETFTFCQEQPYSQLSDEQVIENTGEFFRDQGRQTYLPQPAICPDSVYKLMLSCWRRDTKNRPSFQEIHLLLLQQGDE
# Effect on: enzyme activity
# Action: inhibitor
# Tested at: 0.5 µM
# Baseline: control
Compound,remaining activity [%]
CCOC(=O)c1c(C)[nH]c(/C=C2\C(=O)Nc3ccccc32)c1C,98
Oc1ccc(-c2nc(-c3ccncc3)c(-c3ccc(F)cc3)[nH]2)cc1,86.3
Cc1nc(-c2ccccc2)c(-c2ccncc2)o1,97.4
Nc1[nH]nc2nc3ccccc3nc12,94.6
Nc1ccc2ncnc(NCCc3ccc(Oc4ccccc4)cc3)c2c1,96.8
COc1cc2ncnc(Nc3ccc(Oc4ccccc4)cc3)c2cc1OC,97.9
O=C1NC(=O)C(c2cn(CCCO)c3ncccc23)=C1c1cnccn1,94.6
O=C(Nc1cccc(Nc2cc(Nc3cccc(C(F)(F)F)c3)ncn2)c1)C1CC1,106
Cn1sc(=O)n(Cc2ccccc2)c1=O,102
CN(C)c1ccc(C=C2C(=O)Nc3ccccc32)cc1,103
Cc1ccc(NC(=O)c2ccc(CN3CCN(C)CC3)cc2)cc1Nc1nc(-c2cccnc2)cs1,36.4
O=C(CCCc1ccc(-c2ccccc2F)cc1)Nc1ccc(O)cc1,98.1
Cn1c2ccccc2c2c3c(c4c5ccccc5n(CCC#N)c4c21)CNC3=O,73.3

# Sample 3
# SMILES: CS(=O)(=O)N1CCCC(NC(=O)[C@H](CCC2CCCCC2)NC(=O)c2ccc(CNc3ncnc4c3nnn4-c3ccccc3)cc2)C1 (some centres unmarked)
# Effect on: cell-free assay
# Method: competition with immobilised ligand
# Tested at: 0.1 µM
target,remaining binding [%]
"CDK11B (Homo sapiens, UniProt P21127)",100
"WEE2 (Homo sapiens, UniProt P0C1S8)",100
"Ribosomal protein S6 kinase alpha-4, N-terminal kinase domain (RPS6KA4, Homo sapiens, UniProt O75676)",86
"RAF1 (Homo sapiens, UniProt P04049)",70
"PRKG2 (Homo sapiens, UniProt Q13237)",79
"CDK4 (Homo sapiens, UniProt P11802)",91
"HIPK4 (Homo sapiens, UniProt Q8NE63)",100
"SIK3 (Homo sapiens, UniProt Q9Y2K2)",78
"KDR (Homo sapiens, UniProt P35968)",85
"TGFBR1 (Homo sapiens, UniProt P36897)",100
"MAPK15 (Homo sapiens, UniProt Q8TD08)",100
"LIM domain kinase 2 (LIMK2, Homo sapiens, UniProt P53671)",100
"Tyrosine-protein kinase ABL1, non-phosphorylated (ABL1, Homo sapiens, UniProt P00519)",88
"EPHB1 (Homo sapiens, UniProt P54762)",100
"MAPK13 (Homo sapiens, UniProt O15264)",100
"EGFR (Homo sapiens, UniProt P00533, del747-750/T751S)",94
"CDK13 (Homo sapiens, UniProt Q14004)",100
"NEK2 (Homo sapiens, UniProt P51955)",100
"TLK1 (Homo sapiens, UniProt Q9UKI8)",94
"CHUK (Homo sapiens, UniProt O15111)",100
"DYRK1A (Homo sapiens, UniProt Q13627)",87

# Sample 4
# Target: CCNA2, cyclin fold, Cln2 fusion (human)
# Method: yeast growth competition, sequencing
# Sample: yeast
# Notes: strong parent motif
# Baseline: not given
# Reading: higher = stronger binding
# Parent: CDC6 docking peptide (human); TLKGRRLVFDNQL; partner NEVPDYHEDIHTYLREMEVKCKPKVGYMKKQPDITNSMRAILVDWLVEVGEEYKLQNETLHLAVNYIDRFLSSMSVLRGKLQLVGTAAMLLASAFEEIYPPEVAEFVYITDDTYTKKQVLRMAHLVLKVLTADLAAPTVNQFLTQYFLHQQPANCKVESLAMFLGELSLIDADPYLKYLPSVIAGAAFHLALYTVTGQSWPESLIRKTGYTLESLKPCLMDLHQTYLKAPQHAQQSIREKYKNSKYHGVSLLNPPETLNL
Change,normalised enrichment score
L2T,2.87
R6C,1.44
F9M,1.59
T1H,4.2
L7P,0.534
R5A,0.89
R5S,0.18
K3W,1.03

# A few entries again (sample 4):
Change,normalised enrichment score
K3W,1.03
T1H,4.2
R6C,1.44
